Measurements gathered from unrelated publications.
Each line is one published result; not all experiments were run side by side. ± gives the spread as reported.

With `COc1ccnc(Nc2c3c(nc4ccccc24)CCC(C)C3)c1` (stereo not shown) the inhibition was 6.08 ± 0.1% (HepG2; MTT; 50 µM, 24 h, 10% FBS).
For `CC(C)C[C@H](NC(=O)[C@H](CCC(N)=O)NC(=O)[C@@H]1CSSC[C@@H]2NC(=O)[C@H](CC(N)=O)NC(=O)[C@@H](N)CSSC[C@H](NC(=O)[C@H](Cc3ccccc3)NC(=O)[C@H](C)NC(=O)[C@H]([C@@H](C)O)NC(=O)[C@H](CCC(=O)O)NC(=O)[C@@H]3CCCN3C(=O)[C@H](C)NC(=O)[C@H](CCCCN)NC2=O)C(=O)N[C@@H](C)C(=O)N[C@@H](Cc2ccc(O)cc2)C(=O)N[C@@H](Cc2c[nH]c3ccccc23)C(=O)N1)C(N)=O`, cytotoxicity read “not toxic” (HCT-116 p53+/+; up to 400 µM).
With `CC(=O)N[C@@H](CC[S+](C)[Ru-4]123([S+](C)CC[C@H](NC(C)=O)C(=O)O)[n+]4ccc5ccccc5c4Nc4cccc([n+]41)-c1cccc([n+]12)Nc1c2ccccc2cc[n+]13)C(=O)[O-].F[P-](F)(F)(F)(F)F` (stereo partly shown) the phototoxicity index was no more than 22 (A-431 and A549; 520 nm light, 75 J/cm2; reference: dark over light EC50).
For `CC(=O)Oc1ccc(Cn2ccc(=O)[nH]c2=O)cc1C1OC(c2cccc(Cl)c2)=NN1C(C)=O` (stereo not shown), “minimum cytotoxic concentration” read 100 µM (HEL fibroblasts; cell morphology alteration).
For `CCCCn1cc(C(=O)O)c(=O)c2cc(F)c(Nc3ccccc3Cl)c(N)c21`, the IC50 was 42.8 ± 1.26 µg/mL (HCT-116; cell growth, SRB; 72 h).
For `N=C(N)NCCC[C@@H]1NC(=O)[C@H](Cc2csc3ccccc23)NC(=O)[C@@H](Cc2ccccc2)NC(=O)[C@H](Cc2ccccc2)NC(=O)[C@H](CCC(=O)NCCOCCOCC(=O)N[C@@H](CCCCNC(=O)c2ccc3c(c2)C(=O)OC32c3ccc4cc(O)ccc4c3Oc3c2ccc2cc(O)ccc32)C(N)=O)NC(=O)[C@@H](CCCNC(=N)N)NC(=O)[C@H](CCCNC(=N)N)NC(=O)[C@@H](CCCNC(=N)N)NC1=O`, the cellular uptake was 79 ± 13% (HeLa; flow cytometry; 5.0 µM, 2 h, 1% FBS; reference: CPP12).
For `COc1c(OC(=O)N(C)c2ccccc2Br)cc2oc3cc4c(c(O)c3c(=O)c2c1CC=C(C)C)C=CC(C)(C)O4`, the inhibition was 0% (PC-12; cell proliferation, MTT; 10 µM, 24 h).
`CCCCCCCCCCCCCCOc1c(O)cc(C(=O)O[C@@H]2Cc3c(O)cc(O)cc3O[C@@H]2c2cc(O)c(O)c(O)c2)cc1O` gave a cell death of 45.2% (U-87 MG; CCK-8; 50 µM, 24 h).
For `COCc1cc(C)nc(SCC[N+](C)(C)CC(=O)Nc2cccc(C(F)(F)F)c2)c1C#N`, cytotoxicity read “not toxic” (PC-12; MTS; 10 µM, 48 h).
With `COC(=O)[C@]1(C)CCC[C@]2(C)[C@H]3C[C@H]4C(C(C)C)=C[C@]3(CC[C@H]21)[C@H]1[C@@H]4[C@@H](OCC#CCN2CCOCC2)CC[C@@H]1O` the viability was 117% (BHK-21-hACE2; 20.0 µM, 48 (unit not given)).
`NNCC1=C(O)C(=O)c2ccccc2C1=O` — result for “median lethal concentration”: 257 µM (BGM (monkey kidney); MTT; 10% FCS; 24 h).
`CC(=O)Oc1ccc(Cn2cc(F)c(=O)[nH]c2=O)cc1C1OC(c2ccccc2)=NN1C(C)=O` (stereo not shown): “minimum cytotoxic concentration” 100 µM (HEL fibroblasts; cell morphology, microscopy).
`C/C(=N\NC(=N)N)c1nnn(-c2ccc(S(=O)(=O)NCC(C)C)cc2)c1C` gave a lytic concentration of greater than 10 mg/mL (erythrocytes; 30% hemolysis).
For `c1ccc2nc(Nc3c4c(nc5ccccc35)CCCC4)ccc2c1`, the inhibition was 0.83 ± 0.12% (HepG2; MTT; 50 µM, 24 h, 10% FBS).
Under “minimum cytotoxic concentration”, `CC(=O)Oc1ccc(Cn2cc(C)c(=O)[nH]c2=O)cc1C1OC(c2cccc(Cl)c2)=NN1C(C)=O` (stereo not shown) is recorded as 100 µM (HEL fibroblasts; cell morphology alteration).
Under cytotoxicity, `CC[C@H](C)[C@H](NC(=O)[C@H](C)NC(=O)CNC(=O)[C@H](CCCCN)NC(=O)[C@H](CC(N)=O)NC(=O)[C@H](CO)NC(=O)CNC(=O)[C@@H](NC(=O)[C@H](CC(=O)O)NC(=O)[C@H](CCC(=O)O)NC(=O)[C@H](C)NC(=O)[C@H](Cc1ccccc1)NC(=O)[C@H](Cc1ccccc1)NC(=O)[C@@H](NC(=O)[C@H](CC(C)C)NC(=O)[C@H](CCCCN)NC(=O)[C@H](CCC(N)=O)NC(=O)[C@H](Cc1c[nH]cn1)NC(=O)[C@H](CCCNC(=N)N)NC(=O)[C@@H](NC(=O)[C@H](CCC(=O)O)NC(=O)[C@H](Cc1ccccc1)NC(=O)CNC(=O)[C@H](CO)NC(=O)[C@H](CC(=O)O)NC(=O)[C@H](Cc1c[nH]cn1)NC(=O)CNC(=O)[C@H](Cc1ccccc1)NC(=O)[C@H](CCC(=O)O)NC(=O)[C@H](C)NC(=O)[C@@H](N)CC(=O)O)C(C)C)C(C)C)C(C)C)C(=O)N[C@H](C(=O)NCC(=O)N[C@@H](CC(C)C)C(=O)N[C@@H](CCSC)C(=O)N[C@H](C(=O)NCC(=O)NCC(=O)N[C@H](C(=O)N[C@H](C(=O)N[C@H](C(=O)N[C@@H](C)C(=O)O)[C@@H](C)CC)C(C)C)C(C)C)C(C)C)[C@@H](C)CC` is recorded as “not toxic” (NGF-differentiated PC-12 cells; MTT; 10 µM, 24 h).
The IC50 of `CCCCCC1CCCCCCC(=O)CCC(=O)OCC2OC(OC3C(O1)OC(C)C(OC(C)=O)C3O)C(O)C(OC(=O)C(C)CC)C2OC(=O)C=Cc1ccccc1` (mixture of isomers) is reported as 429 nM (MDA-MB-231; cytotoxicity).
The viability of `CCN(CC)CC#CCOC(=O)[C@]1(C)CCC[C@]2(C)[C@H]3C[C@H]4C(C(C)C)=C[C@]3(CC[C@H]21)[C@@H]1C(=O)OC(=O)[C@@H]14` is reported as 148% (BHK-21-hACE2; 20.0 µM, 48 (unit not given)).
Under “minimal cytotoxic concentration”, `CC(C)c1ccc(C[C@H](C)C(=O)NC(=O)N[C@@H]2O[C@H](CO)[C@@H](O)[C@H](O)[C@H]2O)cc1` is recorded as greater than 100 µM (HEL fibroblasts; cell morphology; 3 days).
For `CC(=O)Oc1ccc(Cn2cc(F)c(=O)[nH]c2=O)cc1C1OC(c2cccc(Cl)c2)=NN1C(C)=O` (stereo not shown), “minimum cytotoxic concentration” read 100 µM (HEL fibroblasts; cell morphology, microscopy).
For `CC(=O)OC[C@H]1O[C@@H](NC(=O)CCCc2ccc3c(c2)CCCC3)[C@H](OC(C)=O)[C@@H](OC(C)=O)[C@@H]1OC(C)=O`, “minimal cytotoxic concentration” read greater than 100 µM (HEL fibroblasts; cell morphology; 3 days).
`c1cc(Nc2c3c(nc4ccccc24)CCCC3)c2cccnc2c1` has an inhibition of 9.55 ± 0.56% (HepG2; MTT; 50 µM, 24 h, 10% FBS).
`COc1c(OC(=O)N(C)c2cccc(Br)c2)cc2oc3cc4c(c(O)c3c(=O)c2c1CC=C(C)C)C=CC(C)(C)O4` gave an inhibition of 3.1% (PC-12; cell proliferation, MTT; 10 µM, 24 h).
For `O=C1CCc2ccc(OCCCCCCSC(=S)N3CCCCC3)cc2N1`, cytotoxicity read “not toxic” (PC-12; CCK-8; up to 12.5 µM, 24 h).
`CN[C@](C)(C[18F])C(=O)O` gave a tracer uptake of 2.6 %ID/g (A549 tumour model; host not given, bone; 15 min, tumour-bearing).
For `CC(C)c1ccc(/C=C/C(=O)N[C@@H]2O[C@H](CO)[C@@H](O)[C@H](O)[C@H]2O)cc1`, “minimal cytotoxic concentration” read greater than 100 µM (HEL fibroblasts; cell morphology; 3 days).
`O=C1C(O)=C(CNC2CCCC2)C(=O)c2ccccc21`: “median lethal concentration” no less than 3690 µM (BGM (monkey kidney); MTT; 10% FCS; 24 h).
`CCCCn1cc(C(=O)O)c(=O)c2cc(F)c3c(nnn3-c3ccccc3Cl)c21` gave an IC50 of 48.4 ± 0.44 µg/mL (SW-620; cell growth, SRB; 72 h).
`CC(=O)OC[C@H]1O[C@@H](NC(=O)/C=C/c2ccc(C(C)C)cc2)[C@H](OC(C)=O)[C@@H](OC(C)=O)[C@@H]1OC(C)=O`: “minimal cytotoxic concentration” greater than 100 µM (HEL fibroblasts; cell morphology; 3 days).
The IC50 of `CCCCn1cc(C(=O)O)c(=O)c2cc(F)c(Nc3ccccc3Cl)c([N+](=O)[O-])c21` is reported as 272000 nM (SW-620; cell growth or viability, SRB).
The IC50 of `CC=C(C)C(=O)OC1C(O)C2OC(COC(=O)CCCCCCCCCC(CCCCC)OC3OC(C)C(OC(C)=O)C(O)C3O2)C1OC(=O)C=Cc1ccccc1` (stereo not shown) is reported as 11.1 nM (U-937; cytotoxicity).

Excerpt of the above:
For `CC(C)c1ccc(/C=C/C(=O)N[C@@H]2O[C@H](CO)[C@@H](O)[C@H](O)[C@H]2O)cc1`, “minimal cytotoxic concentration” read greater than 100 µM (HEL fibroblasts; cell morphology; 3 days).
For `N=C(N)NCCC[C@@H]1NC(=O)[C@H](Cc2csc3ccccc23)NC(=O)[C@@H](Cc2ccccc2)NC(=O)[C@H](Cc2ccccc2)NC(=O)[C@H](CCC(=O)NCCOCCOCC(=O)N[C@@H](CCCCNC(=O)c2ccc3c(c2)C(=O)OC32c3ccc4cc(O)ccc4c3Oc3c2ccc2cc(O)ccc32)C(N)=O)NC(=O)[C@@H](CCCNC(=N)N)NC(=O)[C@H](CCCNC(=N)N)NC(=O)[C@@H](CCCNC(=N)N)NC1=O`, the cellular uptake was 79 ± 13% (HeLa; flow cytometry; 5.0 µM, 2 h, 1% FBS; reference: CPP12).
For `CC(=O)Oc1ccc(Cn2ccc(=O)[nH]c2=O)cc1C1OC(c2cccc(Cl)c2)=NN1C(C)=O` (stereo not shown), “minimum cytotoxic concentration” read 100 µM (HEL fibroblasts; cell morphology alteration).
